Published values collected from several papers.
Every numbered part comes from another study and shows a few of its results, in no order. Positions count from the first letter of the parent shown.
Sequence of UniProt Q9XED8 (whole entry, looked up): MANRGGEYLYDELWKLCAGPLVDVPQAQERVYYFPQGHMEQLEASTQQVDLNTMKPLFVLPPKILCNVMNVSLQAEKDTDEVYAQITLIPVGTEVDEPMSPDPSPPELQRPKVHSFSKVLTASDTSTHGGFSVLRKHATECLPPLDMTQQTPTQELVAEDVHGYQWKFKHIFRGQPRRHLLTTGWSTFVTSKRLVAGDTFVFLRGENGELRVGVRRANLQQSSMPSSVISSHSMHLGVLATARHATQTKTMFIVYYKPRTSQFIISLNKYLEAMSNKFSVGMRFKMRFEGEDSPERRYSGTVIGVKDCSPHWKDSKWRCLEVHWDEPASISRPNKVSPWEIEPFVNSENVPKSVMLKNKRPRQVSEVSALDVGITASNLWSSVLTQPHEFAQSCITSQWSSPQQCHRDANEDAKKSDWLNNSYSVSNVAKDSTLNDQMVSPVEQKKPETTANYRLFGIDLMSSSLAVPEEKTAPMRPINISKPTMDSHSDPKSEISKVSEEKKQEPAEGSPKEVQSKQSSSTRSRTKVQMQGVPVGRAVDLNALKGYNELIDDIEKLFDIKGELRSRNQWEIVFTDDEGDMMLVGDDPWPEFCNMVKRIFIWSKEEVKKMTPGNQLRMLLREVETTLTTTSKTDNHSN
Sequence of UniProt Q9ZSY8 (whole entry, looked up): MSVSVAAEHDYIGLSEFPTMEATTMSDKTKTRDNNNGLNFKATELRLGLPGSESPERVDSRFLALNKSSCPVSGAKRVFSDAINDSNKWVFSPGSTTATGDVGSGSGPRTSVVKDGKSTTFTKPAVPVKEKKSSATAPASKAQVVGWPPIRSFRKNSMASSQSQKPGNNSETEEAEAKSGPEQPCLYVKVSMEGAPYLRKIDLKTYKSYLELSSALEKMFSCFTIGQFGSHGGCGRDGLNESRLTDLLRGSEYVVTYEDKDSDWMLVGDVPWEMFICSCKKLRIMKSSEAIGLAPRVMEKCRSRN
Sequence of UniProt Q9FX25 (whole entry, looked up): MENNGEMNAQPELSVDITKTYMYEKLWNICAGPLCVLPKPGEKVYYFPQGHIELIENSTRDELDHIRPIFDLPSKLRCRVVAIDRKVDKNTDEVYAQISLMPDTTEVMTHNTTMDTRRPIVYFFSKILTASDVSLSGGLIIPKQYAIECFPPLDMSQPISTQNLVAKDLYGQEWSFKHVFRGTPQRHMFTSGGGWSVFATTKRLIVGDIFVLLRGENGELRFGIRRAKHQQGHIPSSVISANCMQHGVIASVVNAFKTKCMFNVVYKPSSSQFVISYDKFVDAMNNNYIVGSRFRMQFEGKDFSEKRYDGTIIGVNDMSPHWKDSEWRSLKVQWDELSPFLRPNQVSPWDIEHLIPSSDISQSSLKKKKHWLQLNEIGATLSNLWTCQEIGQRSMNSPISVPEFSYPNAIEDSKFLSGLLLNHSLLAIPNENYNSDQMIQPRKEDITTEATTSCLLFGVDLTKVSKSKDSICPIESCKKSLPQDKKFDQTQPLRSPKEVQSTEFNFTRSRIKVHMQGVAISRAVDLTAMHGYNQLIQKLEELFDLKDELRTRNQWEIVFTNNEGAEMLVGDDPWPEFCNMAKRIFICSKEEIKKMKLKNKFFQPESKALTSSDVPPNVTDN
Sequence of UniProt Q84WU6 (whole entry, looked up): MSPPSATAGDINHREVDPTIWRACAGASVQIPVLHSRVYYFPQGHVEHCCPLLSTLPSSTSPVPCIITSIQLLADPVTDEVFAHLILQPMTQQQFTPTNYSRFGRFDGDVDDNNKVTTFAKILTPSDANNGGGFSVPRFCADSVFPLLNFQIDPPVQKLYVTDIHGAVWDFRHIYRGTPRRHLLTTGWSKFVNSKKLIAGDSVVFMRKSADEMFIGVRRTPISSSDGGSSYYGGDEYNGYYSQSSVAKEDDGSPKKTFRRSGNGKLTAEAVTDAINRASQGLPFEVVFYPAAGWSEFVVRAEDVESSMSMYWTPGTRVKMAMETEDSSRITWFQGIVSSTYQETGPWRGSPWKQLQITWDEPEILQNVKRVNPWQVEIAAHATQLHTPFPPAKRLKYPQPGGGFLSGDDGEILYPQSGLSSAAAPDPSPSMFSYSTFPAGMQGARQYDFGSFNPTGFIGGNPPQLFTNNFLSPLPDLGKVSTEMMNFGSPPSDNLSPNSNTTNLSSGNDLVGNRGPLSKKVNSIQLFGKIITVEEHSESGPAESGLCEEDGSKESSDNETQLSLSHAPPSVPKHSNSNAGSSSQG
Sequence of UniProt Q9ZTX8 (whole entry, looked up): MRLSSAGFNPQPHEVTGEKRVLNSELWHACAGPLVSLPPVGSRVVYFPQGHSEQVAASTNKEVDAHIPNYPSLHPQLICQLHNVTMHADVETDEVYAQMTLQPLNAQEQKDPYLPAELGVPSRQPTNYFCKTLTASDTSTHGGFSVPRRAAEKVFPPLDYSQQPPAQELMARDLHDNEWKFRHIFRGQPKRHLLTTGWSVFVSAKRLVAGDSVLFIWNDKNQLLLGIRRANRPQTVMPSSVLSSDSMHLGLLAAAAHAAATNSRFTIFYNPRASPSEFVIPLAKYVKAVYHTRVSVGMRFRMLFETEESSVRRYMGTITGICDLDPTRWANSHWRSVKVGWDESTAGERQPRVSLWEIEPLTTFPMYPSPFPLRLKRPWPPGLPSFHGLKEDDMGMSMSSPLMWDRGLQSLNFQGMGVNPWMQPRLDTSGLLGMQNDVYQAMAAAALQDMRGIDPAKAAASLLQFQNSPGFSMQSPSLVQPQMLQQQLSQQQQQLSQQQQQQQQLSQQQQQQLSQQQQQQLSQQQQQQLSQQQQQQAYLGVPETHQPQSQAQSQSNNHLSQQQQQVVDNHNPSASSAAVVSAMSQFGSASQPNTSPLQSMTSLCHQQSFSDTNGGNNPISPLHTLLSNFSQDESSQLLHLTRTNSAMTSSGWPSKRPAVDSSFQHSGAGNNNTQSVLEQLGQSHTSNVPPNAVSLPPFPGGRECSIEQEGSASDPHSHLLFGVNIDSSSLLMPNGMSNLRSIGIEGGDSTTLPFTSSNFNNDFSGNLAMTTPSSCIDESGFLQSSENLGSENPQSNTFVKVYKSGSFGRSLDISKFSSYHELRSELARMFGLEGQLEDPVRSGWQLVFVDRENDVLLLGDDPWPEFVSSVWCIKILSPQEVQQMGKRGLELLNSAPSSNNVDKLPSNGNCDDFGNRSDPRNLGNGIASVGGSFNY
Sequence of UniProt Q9C8N7 (whole entry, looked up): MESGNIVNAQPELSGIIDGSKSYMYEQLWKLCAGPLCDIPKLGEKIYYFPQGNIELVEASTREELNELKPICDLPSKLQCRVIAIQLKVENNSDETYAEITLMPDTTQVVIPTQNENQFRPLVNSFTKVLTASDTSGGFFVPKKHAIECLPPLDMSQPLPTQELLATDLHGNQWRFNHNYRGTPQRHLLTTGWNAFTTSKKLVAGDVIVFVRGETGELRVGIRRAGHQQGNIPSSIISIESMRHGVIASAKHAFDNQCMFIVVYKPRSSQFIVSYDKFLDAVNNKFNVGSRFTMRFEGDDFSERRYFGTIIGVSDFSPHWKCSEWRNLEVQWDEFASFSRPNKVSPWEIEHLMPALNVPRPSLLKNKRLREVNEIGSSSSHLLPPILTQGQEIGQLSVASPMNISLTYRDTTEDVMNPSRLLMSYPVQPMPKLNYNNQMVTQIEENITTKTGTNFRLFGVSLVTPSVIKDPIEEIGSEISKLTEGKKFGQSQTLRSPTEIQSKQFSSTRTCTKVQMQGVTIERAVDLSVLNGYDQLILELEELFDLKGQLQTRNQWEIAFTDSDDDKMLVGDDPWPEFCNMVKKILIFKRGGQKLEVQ
Sequence of UniProt Q9ZTX9 (whole entry, looked up): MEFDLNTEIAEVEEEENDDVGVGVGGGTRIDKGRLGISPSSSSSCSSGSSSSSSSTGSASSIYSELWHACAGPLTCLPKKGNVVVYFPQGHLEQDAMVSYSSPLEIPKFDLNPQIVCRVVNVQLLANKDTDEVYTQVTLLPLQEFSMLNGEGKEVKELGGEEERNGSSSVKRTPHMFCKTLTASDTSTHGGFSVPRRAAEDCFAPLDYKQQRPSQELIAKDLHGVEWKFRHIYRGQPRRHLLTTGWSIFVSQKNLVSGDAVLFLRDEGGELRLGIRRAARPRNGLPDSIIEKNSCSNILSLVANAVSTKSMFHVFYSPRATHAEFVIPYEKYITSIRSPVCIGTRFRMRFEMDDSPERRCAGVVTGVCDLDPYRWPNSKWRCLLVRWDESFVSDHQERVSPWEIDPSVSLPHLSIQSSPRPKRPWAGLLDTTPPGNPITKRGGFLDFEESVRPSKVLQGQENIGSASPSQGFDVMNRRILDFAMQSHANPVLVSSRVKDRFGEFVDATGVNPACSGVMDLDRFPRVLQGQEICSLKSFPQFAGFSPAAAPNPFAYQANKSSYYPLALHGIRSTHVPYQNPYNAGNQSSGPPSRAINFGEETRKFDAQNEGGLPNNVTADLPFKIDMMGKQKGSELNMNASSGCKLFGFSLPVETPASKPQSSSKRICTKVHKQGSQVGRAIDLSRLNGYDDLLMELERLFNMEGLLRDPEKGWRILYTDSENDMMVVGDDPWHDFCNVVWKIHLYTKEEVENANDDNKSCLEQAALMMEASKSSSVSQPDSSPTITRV
Sequence of UniProt Q9C5X0 (whole entry, looked up): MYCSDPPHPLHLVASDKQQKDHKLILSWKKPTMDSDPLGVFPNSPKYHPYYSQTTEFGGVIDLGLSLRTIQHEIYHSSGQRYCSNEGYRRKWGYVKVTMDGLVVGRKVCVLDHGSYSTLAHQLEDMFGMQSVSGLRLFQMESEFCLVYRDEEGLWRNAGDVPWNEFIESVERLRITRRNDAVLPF

Sample 1
Target: RNA binding protein fox-1 homolog 2, RRM domain, GST-SBP tag (RBFOX2, Homo sapiens, UniProt O43251-10, residues 100-194)
Method: RNA Bind-n-Seq
Form: RNA
Matrix: in vitro
Tested at: 365 nM
Notes: natural RNA segment, single round, ends assumed
Reference: no-protein control
Direction: higher = stronger binding
Constant ends, left off below: GGGAGUUCUACAGUCCGACGAUC … UGGAAUUCUCGGGUGCCAA
Target sequence (chain): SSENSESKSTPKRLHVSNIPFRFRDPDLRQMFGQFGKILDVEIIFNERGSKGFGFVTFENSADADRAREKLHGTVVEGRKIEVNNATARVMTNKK
Strand | RBNS enrichment (R)
CCUGGGUGCAGUAGGCGCUGGGUCCUCCUGACCUCUGUUUCACUGUUUGUGGUAAGGUAGCCACACCUGGAGCUCACGUGUAACCUGGAGCGCUGUGCUACCAGUAGCUU | 0.377
GACUCGUGGUGACCUAACCUGAGAAAGAGUGCAAUCAGAUGUUAAAGUAACUAAAUAGACUGCGGCACUUUUUUGCUUUAAACUAGAUCAUCUUAGAUUUGUCGAUACCU | 0.357
GACUCAUAUCCAAUGGCUCCUAAGUGUUUGUCCUGUGCAAUAUACAGCCCAGGGAGGGAAGGGAAGCACGGCGAGGAGGGUGGGAAAGGUUCUCCCUCAGCCCACUAGCC | 1.78
GACCGCCCCUCUUGAGGAAGCAGAAUUAACAUCAGAAUACAAACAGCAUCAGGGCAACCCACUUCAGUGUUCUCUUUUAAAAAUCAGUUCCUGCUGGGUGUGGUGGCGCA | 0.851
UUCCACUUGUAUAAUUUAAGUCUUAGCUCUUUCAGAUGCAAGAAACUUAUACUAUUAAAAUUGUUGCGAUGUCACUUAGCUUGACUUUAAAGUUGGCUGGACUGUUAUAC | 0.417
AUAGCAAUAAUACUGUGCUGUGGUGACCUCCGCCCUUGCCUUGUGCAUGUCACACCUCCUUUUCCUUUGCUUCACUUCUGUCAACUGUAGCGACUUUGGUGUGCAGUGAG | 5.47
AUUUUUAUUAAACAGUGAACUUGUCUGGCUUUGGCACUCUCUGCCAUUCUGUGCAGGCUGCAGUGGCUCCCCUGCCCAGCCUGCUCUCCCUAACCCCUUGUCCGCAAGGG | 0.35
AGAACAAAAUAAAAGCUCGGCAUUGUAAUUUUUUUAAUGGACAAGUCUUAUGGAUACGAAGGGUACAUUUUUCAUAAUGAUUCCUUUAUAUUUUCACUUUGUGUCAUUGC | 0.54
CCCUAAAUCAACAUACCACUUGUAAACUGAACUUCGAGAAAGAAACAUGAUGUUCAUUCUGUAAAUAUACAUGCAGACAGGUCAUGUACUAAUCCUAGUCCUUUUCCUGA | 0.327
GGAGGAGCACCCCCAGCCUCCCCCAGGCUGCGCCUGCCCGCCCGCCGGUUGGCCGGCUGGCCGGUCCACCCCGUCCCGGCCCCGCGCGUGCCCCCAGCGUGGGGCUAACG | 0.309
GUGCACCUAUUGGCUCUUCUAGCUGACUCUUCUGGUUGGGCUUAGAGUCUGCCUGUUUCUGCUAGCUCCGUGUUUAGUCCACUUGGGUCAUCAGCUCUGCCAAGCUGAGC | 0.962
CCCACUGGGUUUAAGAGCAUCUUGAAUGUAUAAUCCUUUUUGUAACCCAGGUUGGUUUCUACUUUUACCAGUCACCCAAACAUAUUUAUGUUUUUAGUUUUAUGUACUCA | 0.906

Sample 2
Molecule: B1 (IAA6)
Method: two-hybrid
Reference: out of 4 tests
Direction: higher = firmer interaction
B1: IAA6 (Arabidopsis thaliana, UniProt Q38824); chain MAKEGLALEITELRLGLPGDNYSEISVCGSSKKKKRVLSDMMTSSALDTENENSVVSSVEDESLPVVKSQAVGWPPVCSYRRKKNNEEASKAIGYVKVSMDGVPYMRKIDLGSSNSYINLVTVLENLFGCLGIGVAKEGKKCEYIIIYEDKDRDWMLVGDVPWQMFKESCKRLRIVKRSDATGFGLQQD
partner | notes | positive tests
IAA27 (Arabidopsis thaliana, UniProt Q9ZSY8) | – | 2
ARF13 (Arabidopsis thaliana, UniProt Q9FX25) | – | 0
ARF22 498-598 (Arabidopsis thaliana, UniProt Q9C8N7) | – | 0
ARF9 519-638 (Arabidopsis thaliana, UniProt Q9XED8) | weak activation fusion | 0
ARF17 (Arabidopsis thaliana, UniProt Q84WU6) | weak activation fusion | 0
ARF6 790-935 (Arabidopsis thaliana, UniProt Q9ZTX8) | – | 1
ARF4 660-788 (Arabidopsis thaliana, UniProt Q9ZTX9) | – | 0
IAA34 (Arabidopsis thaliana, UniProt Q9C5X0) | – | 3

Sample 3
Target: PABPC1L2, full length, GST fusion (mouse, UniProt A0ABA7IW68)
Method: RNAcompete
Form: RNA
Matrix: in vitro
Tested at: 20 nM
Notes: 7-mer, probes averaged, single round
Reference: mean of 7-mers
Direction: higher = stronger binding
Strand | 7-mer Z-score
UUCGUUA | -0.367
CGAACGA | -0.0446
GGGCGUC | 0.122
CGGGUAU | -0.0808
GCGAAUU | -0.13
UAGGUAG | -0.0428
UCAACGC | -0.15
CCAGGUC | -0.269
CUCGGAU | -0.202
AGGUUCU | -0.311
CGUGGGA | 0.202
AUGGAUG | 0.0859
UCAGCGC | -0.344
CUCUCCU | -0.383
AUGAUAA | 0.376
AAUGAAG | 0.3
CUAGACG | -0.0047
UUUGAAU | -0.231
UAAAGAG | 1.44
GCUACAG | -0.0899
GACCUAU | -0.177
GCGCCGA | -0.175
ACGACAA | 0.291

Sample 4
Target: ABI1, truncated, D143A, DHFR fusion (Arabidopsis thaliana)
Method: DHFR PCA, deep sequencing
Matrix: yeast
Notes: methotrexate growth selection, single substitutions
Together with: (+)-ABA 17 µM
Reference: wild-type fitted maximum
Direction: higher = stronger binding
Parent: PYL1, truncated, DHFR fusion (Arabidopsis thaliana); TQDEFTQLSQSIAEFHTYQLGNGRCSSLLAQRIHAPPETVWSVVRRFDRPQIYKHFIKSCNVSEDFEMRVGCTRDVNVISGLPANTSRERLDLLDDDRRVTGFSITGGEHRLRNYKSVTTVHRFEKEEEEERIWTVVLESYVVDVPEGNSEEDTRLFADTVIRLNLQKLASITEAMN
Change | relative binding score
E67W | 56.6%
F56D | 2.87%
E14S | 62.5%
V142H | 49.8%
N114T | 8.19%
L166P | 16.7%
E174G | 47.7%
H16Y | -12.8%
H16C | -21.2%
S87G | -2.05%
R132K | 101%
V136E | 15.7%
R74Y | -21.8%
I12Q | 11.4%
V70C | 53.5%
V76E | -16.5%

Sample 5
Target: CCND3, cyclin fold, Cln2 fusion (human)
Method: yeast growth competition, sequencing
Matrix: yeast
Notes: weak parent motif
Reference: not given
Direction: higher = stronger binding
Parent: DTL docking peptide (human); PSSMRKICTYFHR
Change | normalised enrichment score
PSSMRAICTYFHR [K6A] | 0.418
PSSMRKICTYFAR [H12A] | 0.146
PASMRKICTYFHR [S2A] | -0.9
PSAMRKICTYFHR [S3A] | -0.624
ASSMRKICTYFHR [P1A] | -0.446
PSSMRKICTYAHR [F11A] | 0.082
PSSARKICTYFHR [M4A] | -0.143

Sample 6
Target: Protein C-ets-1 (ETS1, Homo sapiens, UniProt P14921, residues 1-441, full length assumed)
Method: protein-binding microarray
Form: double-stranded DNA, one strand shown
Matrix: in vitro
Tested at: not given
Notes: k-mer, scored over probes, only values ≥0.25
Direction: higher = stronger binding
Residues (chain): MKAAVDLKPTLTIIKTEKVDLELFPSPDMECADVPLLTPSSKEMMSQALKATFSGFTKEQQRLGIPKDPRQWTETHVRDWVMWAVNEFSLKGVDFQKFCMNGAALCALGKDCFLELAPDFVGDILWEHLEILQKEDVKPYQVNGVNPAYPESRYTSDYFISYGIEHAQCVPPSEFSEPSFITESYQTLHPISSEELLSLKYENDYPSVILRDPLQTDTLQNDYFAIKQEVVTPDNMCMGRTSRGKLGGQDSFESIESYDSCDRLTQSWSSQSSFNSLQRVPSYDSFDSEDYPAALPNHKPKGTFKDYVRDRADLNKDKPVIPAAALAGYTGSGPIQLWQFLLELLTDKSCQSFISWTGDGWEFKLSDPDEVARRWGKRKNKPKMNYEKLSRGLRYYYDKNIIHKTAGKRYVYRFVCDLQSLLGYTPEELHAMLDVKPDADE
Strand | E-score
CATCCTCC | 0.386
ACGCGGAT | 0.273
CCGGAGCA | 0.272
CCGGAAGA | 0.478
CGGATAAG | 0.342
CGGAAGTA | 0.489
CGGACGCC | 0.378
ATCGGAAG | 0.437
AGGCGGAA | 0.451
CGGGAAGA | 0.297
CATCCGAA | 0.299
ACACAGGA | 0.281
CTTCCTCA | 0.389
TCCCGGAA | 0.46
GGAACCAC | 0.258
AGCCGGAT | 0.47
CCGGTTGC | 0.353
ATGCAGGA | 0.255
CGGAACAG | 0.366

Sample 7
Target: CEBPB, bZIP domain (human)
Method: DHFR protein complementation
Matrix: yeast
Notes: single substitutions, most at no-binding floor
Reference: wild-type JUN-FOS pair
Direction: higher = stronger binding
Parent: JUN, bZIP domain (human); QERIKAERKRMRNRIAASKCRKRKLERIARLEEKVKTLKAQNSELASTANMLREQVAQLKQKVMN; partner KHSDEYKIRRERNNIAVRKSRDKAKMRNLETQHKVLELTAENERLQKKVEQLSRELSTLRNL
Change | binding fitness [natural log]
A40P | -1.5
K39N | -1.44
V56H | -1.2
M51I | -1.33
N42M | -1.46
K39M | -1.35
R30G | -1.18
A29F | -1.41
V56S | -1.46
I28D | -1.05
S43E | -1.14
Q41D | -1.46
M51N | -1.31
I28N | -1.15
E44K | -1.42
K36E | -1.25
L45S | -1.2
S43L | -1.29
T48D | -1.54
S47R | -1.14

Some of these lines once more (sample 3):
Strand | 7-mer Z-score
GACCUAU | -0.177
UAAAGAG | 1.44
UUCGUUA | -0.367
CUCUCCU | -0.383
CGUGGGA | 0.202
UAGGUAG | -0.0428
AUGAUAA | 0.376
UUUGAAU | -0.231
GCGCCGA | -0.175
GGGCGUC | 0.122
